# Measurements collected from several papers.
# Protocols differ between the studies behind these lines. Numbers after ± are the reported error.
# GSK3B with Nav1.6: Glycogen synthase kinase-3 beta, with Nav1.6 (GSK3B, Homo sapiens, UniProt P49841)
# Sequence of UniProt P49841 (whole entry, looked up): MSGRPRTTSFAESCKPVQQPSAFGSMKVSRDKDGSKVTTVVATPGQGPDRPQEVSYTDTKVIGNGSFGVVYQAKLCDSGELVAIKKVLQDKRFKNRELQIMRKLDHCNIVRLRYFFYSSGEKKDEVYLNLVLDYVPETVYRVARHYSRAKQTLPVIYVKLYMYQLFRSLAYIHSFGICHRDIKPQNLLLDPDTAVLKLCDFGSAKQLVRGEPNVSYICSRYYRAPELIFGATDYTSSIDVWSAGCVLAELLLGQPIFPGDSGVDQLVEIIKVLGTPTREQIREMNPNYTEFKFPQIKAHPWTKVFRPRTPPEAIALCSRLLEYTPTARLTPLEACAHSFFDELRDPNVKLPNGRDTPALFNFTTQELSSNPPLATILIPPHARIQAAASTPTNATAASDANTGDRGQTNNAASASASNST
# GSK3B: Glycogen synthase kinase-3 beta (GSK3B, Homo sapiens, UniProt P49841)
Structure (SMILES),target,assay,test system,conditions,endpoint,value
CCOC(=O)C(=NNc1ccc(O)cc1)C(C)=O,GSK3B with Nav1.6,"protein complex assembly, split-luciferase complementation",HEK293 with Nav1.6 co-transfected,0.5 to 150 µM,maximal inhibition,13.1%
COc1cc(/C=C2\CC/C(=C\c3ccc(O)c(OC)c3)C2=O)ccc1O,GSK3B,,,"concentration not given, cell-based",activity,inactive
CC(C)(C)NC[C@H](O)COc1ccccc1C1CCCC1,GSK3B,"enzyme activity, inhibitor, ADP-Glo",,100 µM,inhibition,no inhibition
CCOC(=O)c1c(NC(=O)CNC(C)C)sc2c1CCCCC2,GSK3B with Nav1.6,"protein complex assembly, split-luciferase complementation",HEK293 with Nav1.6 co-transfected,0.5 to 150 µM,maximal inhibition,67.2%
CCOCCn1c(N2CCCN(C)CC2)nc2ccccc21,GSK3B,"enzyme activity, inhibitor, ADP-Glo",,100 µM,inhibition,no inhibition
Nc1nc(NC2CCCCC2)sc1C(=O)c1ccccc1,GSK3B,"enzyme activity, inhibitor",,10 µM,remaining activity,1%
COc1cc(/C=C2\CCC/C(=C\c3ccc(O)c(OC)c3)C2=O)ccc1O,GSK3B,,,"concentration not given, cell-based",activity,inactive
O=C(NC1CCC1)c1ccc2nc(-c3cccc(NS(=O)(=O)NCCN4CCCCC4)c3)cn2c1,GSK3B,enzyme activity,,10 µM,remaining activity,64%
COc1ccc(F)cc1C(=O)NCc1ccc(-c2nn([C@@H](C)C(F)(F)F)c(N)c2C(N)=O)cc1,GSK3B,"target engagement, competitive chemoproteomics",human PBMCs,10 µM,inhibition,10%
CC(C)(C)C(=O)c1sc(NC2CCCCC2)nc1N,GSK3B,"enzyme activity, inhibitor",,10 µM,remaining activity,15%
Cc1ccc(C(=O)CC2(O)C(=O)Nc3ccc(NC(=O)c4ccccc4)cc32)cc1 (stereo not drawn),GSK3B,,,concentration not given,activity,active
Cn1sc(=O)n(Cc2ccccc2)c1=O,GSK3B,,yeast expressing human GSK-3,"20 mM, 37 °C",inhibition zone diameter,18 ± 1.66 mm
COC(=O)C1=C(C)NC(C)=C(C(=O)OC)C1c1ccccc1[N+](=O)[O-],GSK3B,"inhibitor, ADP-Glo kinase",,,Hill slope,-1.27
COc1cc(/C=C/c2cc(/C=C/c3ccc(O)c(OC)c3)n(-c3ccc(Cl)cc3Cl)n2)ccc1O,GSK3B,,,"concentration not given, cell-based",activity,inactive
Cl.c1ccc2c(c1)CN1CCCC1=N2,GSK3B,"enzyme activity, inhibitor, ADP-Glo",,100 µM,inhibition,no inhibition

# A few entries again:
Structure (SMILES),target,assay,test system,conditions,endpoint,value
Cl.c1ccc2c(c1)CN1CCCC1=N2,GSK3B,"enzyme activity, inhibitor, ADP-Glo",,100 µM,inhibition,no inhibition
